Assay results from different studies.
Each numbered part is a random draw from the data of one study; scales do not carry over between parts.
UniProt O15294, sequence (whole entry, looked up): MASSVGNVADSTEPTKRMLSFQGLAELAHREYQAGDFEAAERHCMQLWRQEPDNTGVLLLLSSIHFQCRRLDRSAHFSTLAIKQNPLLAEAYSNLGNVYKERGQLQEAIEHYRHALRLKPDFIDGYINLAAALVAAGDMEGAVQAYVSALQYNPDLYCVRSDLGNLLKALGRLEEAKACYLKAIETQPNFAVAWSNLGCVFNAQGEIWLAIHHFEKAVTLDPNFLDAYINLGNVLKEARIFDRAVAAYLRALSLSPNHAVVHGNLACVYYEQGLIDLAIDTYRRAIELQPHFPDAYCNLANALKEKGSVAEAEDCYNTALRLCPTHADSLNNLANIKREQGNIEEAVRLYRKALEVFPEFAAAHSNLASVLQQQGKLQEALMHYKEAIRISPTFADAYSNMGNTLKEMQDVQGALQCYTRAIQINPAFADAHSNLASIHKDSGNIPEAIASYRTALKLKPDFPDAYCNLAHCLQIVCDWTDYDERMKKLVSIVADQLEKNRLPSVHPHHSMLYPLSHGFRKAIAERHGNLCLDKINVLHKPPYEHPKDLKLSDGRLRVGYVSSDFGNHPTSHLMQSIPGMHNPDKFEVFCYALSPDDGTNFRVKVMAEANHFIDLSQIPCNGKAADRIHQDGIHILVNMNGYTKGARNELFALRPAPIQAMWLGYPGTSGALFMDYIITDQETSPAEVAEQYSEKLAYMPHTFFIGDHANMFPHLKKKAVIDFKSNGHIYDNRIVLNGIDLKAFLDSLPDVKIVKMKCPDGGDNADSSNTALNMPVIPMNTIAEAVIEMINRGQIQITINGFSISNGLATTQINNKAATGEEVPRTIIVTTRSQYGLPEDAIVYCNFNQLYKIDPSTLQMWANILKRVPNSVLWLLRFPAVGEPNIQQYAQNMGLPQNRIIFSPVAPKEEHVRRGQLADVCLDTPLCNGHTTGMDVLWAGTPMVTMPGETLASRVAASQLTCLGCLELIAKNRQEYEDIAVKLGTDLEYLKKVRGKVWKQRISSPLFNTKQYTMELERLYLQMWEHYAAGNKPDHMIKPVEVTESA

Set 1 — method: universal PBM; molecule type: double-stranded DNA, one strand shown; matrix: in vitro; concentration: not given; direction: higher = stronger binding
Target: Sal-like protein 4, full length isoform B (SALL4, Homo sapiens, UniProt Q9UJQ4-2, residues 1-616)
Setting: 8-mer, flanks averaged, mean of replicates
| Sequence | E-score |
| --- | --- |
| TAATTGCA | 0.18 |
| AACCCCGA | -0.159 |
| GGTTGACA | -0.0198 |
| AAATTGGA | 0.246 |
| TCTAAACA | 0.195 |
| CAGAATGG | -0.039 |
| AGGTCTGG | -0.194 |
| CACCGAAA | -0.0884 |

Set 2 — method: protein-binding microarray; molecule type: double-stranded DNA, one strand shown; matrix: in vitro; concentration: 0.8 µM; setting: whole 60-bp probe, no competitor; direction: higher = stronger binding; constant ends, left off below: … GTCTTGATTCGCTTGACGCTGCTG
Target: Centromere-binding protein 1, full length, N-terminal tag (CBF1, Saccharomyces cerevisiae, UniProt P17106, residues 1-351)
UniProt P17106, sequence (whole entry, looked up): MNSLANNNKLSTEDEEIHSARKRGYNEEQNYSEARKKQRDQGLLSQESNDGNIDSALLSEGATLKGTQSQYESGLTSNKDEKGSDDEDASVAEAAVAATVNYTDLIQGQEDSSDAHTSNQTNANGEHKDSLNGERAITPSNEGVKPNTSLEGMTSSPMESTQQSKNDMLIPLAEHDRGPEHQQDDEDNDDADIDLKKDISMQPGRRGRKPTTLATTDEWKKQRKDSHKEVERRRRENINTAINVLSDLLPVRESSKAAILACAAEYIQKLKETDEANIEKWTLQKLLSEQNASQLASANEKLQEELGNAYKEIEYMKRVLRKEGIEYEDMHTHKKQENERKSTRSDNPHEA
| Sequence | fluorescence intensity |
| --- | --- |
| GAAGCATGCAATCGTGGTCAGAATTCTAACTTTTAG | 502 a.u. |
| CTAAAAAACCAAACTCACGCAACTAATTATTCCTTC | 513 a.u. |
| GAACTTCTTACACCGCATGTGATAATATACTACTAG | 1380 a.u. |
| CTATATATACATATTCACATGTTTCTCATTTTTTTC | 660 a.u. |
| GAAGTGCTCATAAGCCACGTCACAGAAAACGATTAG | 509 a.u. |
| GAATAGCAAAAAAAAATGGTGATGAAAAGGTTATAG | 505 a.u. |
| TGTACGAAGCTATCTCACGCTGATATAGTAGTTAGG | 511 a.u. |
| CTAGCTTTGTAATCGCATGTGAGATAATCAAGGTTC | 648 a.u. |

Other studies, line by line
| Molecule | target | test | system | conditions | scale | measurement | result |
| --- | --- | --- | --- | --- | --- | --- | --- |
| TYRHHNHHPLGEADV | UDP-N-acetylglucosamine--peptide N-acetylglucosaminyltransferase 110 kDa subunit (OGT, Homo sapiens, UniProt O15294) | binding, phage display NGS | peptide | panning round 2 | baseline: input library | minimum log2 enrichment ratio | 3.55 |
| PhoQ, residues 284 288 289 292 302 303 SSCCRF | PhoP, residues 12 14 15 18 19 LWHVM (Escherichia coli, UniProt P23836) | Sort-seq, item: YFP reporter | E. coli | PhoQ-PhoP variant library, together with: 10 µM Mg2+ | baseline: high Mg2+ state, higher = stronger signaling | fold induction | 2.32 |

Some of these lines once more (set 2):
| Sequence | fluorescence intensity |
| --- | --- |
| CTAGCTTTGTAATCGCATGTGAGATAATCAAGGTTC | 648 a.u. |
